Measured values gathered from unrelated publications.
A part holds a random share of what one study measured. Several values in a cell are separate wells, animals, samples, runs or records.
Chain of UniProt P15056 (whole entry, unmodified, looked up): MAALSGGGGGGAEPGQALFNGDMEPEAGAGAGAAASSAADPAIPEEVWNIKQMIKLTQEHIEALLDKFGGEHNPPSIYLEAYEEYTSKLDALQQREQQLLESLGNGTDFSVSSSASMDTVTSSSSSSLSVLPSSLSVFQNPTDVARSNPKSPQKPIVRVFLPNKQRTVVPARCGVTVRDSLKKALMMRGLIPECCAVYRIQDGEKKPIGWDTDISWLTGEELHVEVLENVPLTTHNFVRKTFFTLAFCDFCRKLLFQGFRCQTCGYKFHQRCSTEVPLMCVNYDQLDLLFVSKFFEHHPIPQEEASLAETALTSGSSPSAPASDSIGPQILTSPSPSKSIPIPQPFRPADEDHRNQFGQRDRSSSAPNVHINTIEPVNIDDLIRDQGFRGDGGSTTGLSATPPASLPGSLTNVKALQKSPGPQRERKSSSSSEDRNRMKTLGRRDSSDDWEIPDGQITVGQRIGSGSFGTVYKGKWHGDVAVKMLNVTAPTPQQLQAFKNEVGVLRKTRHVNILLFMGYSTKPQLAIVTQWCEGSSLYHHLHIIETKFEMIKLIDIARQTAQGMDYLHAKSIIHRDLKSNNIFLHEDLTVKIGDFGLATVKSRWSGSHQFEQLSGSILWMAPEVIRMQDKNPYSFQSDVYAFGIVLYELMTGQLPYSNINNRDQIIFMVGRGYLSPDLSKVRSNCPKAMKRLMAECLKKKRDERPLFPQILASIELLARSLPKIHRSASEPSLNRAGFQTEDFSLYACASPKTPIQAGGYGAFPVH
Chain of UniProt O00506 (whole entry, looked up): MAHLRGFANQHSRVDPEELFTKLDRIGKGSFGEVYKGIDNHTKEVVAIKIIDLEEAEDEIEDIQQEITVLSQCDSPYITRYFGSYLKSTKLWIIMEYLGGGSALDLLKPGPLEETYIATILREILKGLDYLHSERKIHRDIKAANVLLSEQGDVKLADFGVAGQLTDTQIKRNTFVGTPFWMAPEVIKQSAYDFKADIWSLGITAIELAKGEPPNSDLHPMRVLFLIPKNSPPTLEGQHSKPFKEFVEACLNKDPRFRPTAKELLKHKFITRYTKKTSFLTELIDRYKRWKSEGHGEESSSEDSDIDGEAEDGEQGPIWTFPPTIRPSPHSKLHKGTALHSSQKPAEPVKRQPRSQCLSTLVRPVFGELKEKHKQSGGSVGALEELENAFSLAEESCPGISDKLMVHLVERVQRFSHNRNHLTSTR
Chain of UniProt Q9HAZ1 (whole entry, looked up): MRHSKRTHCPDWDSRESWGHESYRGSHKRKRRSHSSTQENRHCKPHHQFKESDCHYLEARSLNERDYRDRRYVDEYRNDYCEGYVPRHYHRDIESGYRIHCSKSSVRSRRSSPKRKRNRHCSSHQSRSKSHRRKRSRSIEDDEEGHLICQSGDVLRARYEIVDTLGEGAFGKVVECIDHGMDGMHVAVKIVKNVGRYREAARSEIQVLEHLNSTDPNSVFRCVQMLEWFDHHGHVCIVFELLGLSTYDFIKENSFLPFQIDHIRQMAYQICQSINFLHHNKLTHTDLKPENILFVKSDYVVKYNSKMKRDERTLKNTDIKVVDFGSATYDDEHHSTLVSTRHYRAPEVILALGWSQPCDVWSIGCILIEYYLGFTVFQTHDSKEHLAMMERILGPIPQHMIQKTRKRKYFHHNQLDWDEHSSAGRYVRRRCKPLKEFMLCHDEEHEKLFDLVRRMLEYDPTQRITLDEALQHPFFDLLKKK
Chain of UniProt O94768 (whole entry, looked up): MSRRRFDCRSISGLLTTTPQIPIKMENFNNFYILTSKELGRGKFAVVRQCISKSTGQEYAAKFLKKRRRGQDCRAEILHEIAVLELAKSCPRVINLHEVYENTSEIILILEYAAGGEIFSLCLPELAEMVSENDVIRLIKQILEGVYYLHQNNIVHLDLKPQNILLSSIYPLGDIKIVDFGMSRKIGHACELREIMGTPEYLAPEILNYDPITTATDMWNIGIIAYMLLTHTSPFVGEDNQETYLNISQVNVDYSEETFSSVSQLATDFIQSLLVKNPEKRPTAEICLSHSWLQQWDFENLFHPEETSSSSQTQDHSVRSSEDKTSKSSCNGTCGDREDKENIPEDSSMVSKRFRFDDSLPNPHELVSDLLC
Chain of UniProt Q15418 (whole entry, looked up): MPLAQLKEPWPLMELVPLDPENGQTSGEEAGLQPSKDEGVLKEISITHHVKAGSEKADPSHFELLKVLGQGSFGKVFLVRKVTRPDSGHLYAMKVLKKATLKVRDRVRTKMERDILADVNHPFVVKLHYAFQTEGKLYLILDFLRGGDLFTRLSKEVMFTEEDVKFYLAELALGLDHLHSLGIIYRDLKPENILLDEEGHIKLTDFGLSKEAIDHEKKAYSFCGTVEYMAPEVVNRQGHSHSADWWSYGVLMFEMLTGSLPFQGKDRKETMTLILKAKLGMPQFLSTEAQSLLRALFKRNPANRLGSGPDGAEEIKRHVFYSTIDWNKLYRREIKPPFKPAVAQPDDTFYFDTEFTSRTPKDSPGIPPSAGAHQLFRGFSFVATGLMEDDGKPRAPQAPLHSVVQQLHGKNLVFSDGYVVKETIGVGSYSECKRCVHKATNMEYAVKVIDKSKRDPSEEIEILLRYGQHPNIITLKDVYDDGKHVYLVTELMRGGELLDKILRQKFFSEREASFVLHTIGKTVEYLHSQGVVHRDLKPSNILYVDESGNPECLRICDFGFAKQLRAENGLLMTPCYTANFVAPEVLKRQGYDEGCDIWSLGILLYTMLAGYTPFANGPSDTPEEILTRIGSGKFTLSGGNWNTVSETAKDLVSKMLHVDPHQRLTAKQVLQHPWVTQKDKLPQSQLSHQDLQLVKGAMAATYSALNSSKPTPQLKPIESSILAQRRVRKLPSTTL

Set 1
Structure (SMILES): COc1ccc2c(c1)OC(O)(C(=O)O)C(=O)N2Cc1ccccc1 (stereo not shown)
Organism: Arabidopsis thaliana
Strain: Col-0
| setting | hypocotyl length |
| --- | --- |
| 6.25 µg/mL, seed germination, repetition mean | 1.9 cm |
| 100 µg/mL, seed germination, single repetition | 0.95 cm and 1.02 cm and 1.05 cm and 1 cm and 0.91 cm |
| 3.125 µg/mL, seed germination, repetition mean | 1.97 cm |
| 100 µg/mL, seed germination, repetition mean | 1.03 cm |
| 50 µg/mL, seed germination, repetition mean | 1.33 cm |
| 50 µg/mL, seed germination, single repetition | 1.34 cm and 1.32 cm and 1.35 cm |
| 25 µg/mL, seed germination, single repetition | 1.55 cm and 1.52 cm and 1.62 cm and 1.77 cm and 1.5 cm |
| 25 µg/mL, seed germination, repetition mean | 1.62 cm |
| 3.125 µg/mL, seed germination, single repetition | 1.95 cm and 2 cm and 2.02 cm |

Set 2
Structure (SMILES): CC(C)(C)n1nc(-c2ccc(Cl)cc2)c2c(N)ncnc21
Target: Receptor-interacting serine/threonine-protein kinase 3 (RIPK3, Homo sapiens, UniProt Q9Y572)
Chain of UniProt Q9Y572 (whole entry, looked up): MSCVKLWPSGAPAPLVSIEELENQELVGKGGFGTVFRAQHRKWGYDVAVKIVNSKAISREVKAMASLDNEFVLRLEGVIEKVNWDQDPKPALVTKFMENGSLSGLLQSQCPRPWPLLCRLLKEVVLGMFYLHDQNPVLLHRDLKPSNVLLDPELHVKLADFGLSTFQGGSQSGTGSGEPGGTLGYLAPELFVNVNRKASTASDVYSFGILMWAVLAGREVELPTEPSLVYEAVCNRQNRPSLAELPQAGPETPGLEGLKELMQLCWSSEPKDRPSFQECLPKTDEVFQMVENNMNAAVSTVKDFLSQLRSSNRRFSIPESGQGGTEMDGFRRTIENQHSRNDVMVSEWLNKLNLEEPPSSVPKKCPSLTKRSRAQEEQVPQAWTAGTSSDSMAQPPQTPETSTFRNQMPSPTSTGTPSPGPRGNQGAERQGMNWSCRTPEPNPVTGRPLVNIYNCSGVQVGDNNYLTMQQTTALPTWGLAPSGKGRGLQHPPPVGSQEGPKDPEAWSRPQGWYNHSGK
Observed: kinase activity
Mode: inhibitor
Method: ADP-Glo
Time: 1 h
| setting | inhibition |
| --- | --- |
| 500 nM | 89.7% |
| 62.5 nM | 45.3% |
| 31.25 nM | 26.3% |
| 125 nM | 63.9% |
| 250 nM | 78.1% |

Set 3
SMILES: CC[C@@]1(c2cccc(-c3c(F)cncc3OC)c2)C2=C(Nc3n[nH]cc31)[C@H](F)C(C)(C)CC2=O (single isomer, unassigned)
Concentration: 1 µM
| target | assay | how to read | remaining binding |
| --- | --- | --- | --- |
| EGFR (Homo sapiens, UniProt P00533, T790M) | binding, competition with immobilised ligand | – | 98% |
| EGFR (Homo sapiens, UniProt P00533) | kinase binding, KINOMEscan | baseline: DMSO control | 100% |
| LTK (Homo sapiens, UniProt P29376) | binding, competition with immobilised ligand | – | 70% |
| AAK1 (Homo sapiens, UniProt Q2M2I8) | binding, competition with immobilised ligand | – | 87% |
| BTK (Homo sapiens, UniProt Q06187) | kinase binding, KINOMEscan | baseline: DMSO control | 77% |
| PKN2 (Homo sapiens, UniProt Q16513) | kinase binding, KINOMEscan | baseline: DMSO control | 66% |
| PHKG1 (Homo sapiens, UniProt Q16816) | binding, competition with immobilised ligand | – | 100% |
| CLK3 (Homo sapiens, UniProt P49761) | kinase binding, KINOMEscan | baseline: DMSO control | 73% |
| BRAF (Homo sapiens, UniProt P15056, V600E) | binding, competition with immobilised ligand | – | 84% |
| STK17B (Homo sapiens, UniProt O94768) | kinase binding, KINOMEscan | baseline: DMSO control | 80% |
| STK25 (Homo sapiens, UniProt O00506) | kinase binding, KINOMEscan | baseline: DMSO control | 85% |
| MAP4K4 (Homo sapiens, UniProt O95819) | kinase binding, KINOMEscan | baseline: DMSO control | 62% |
| MTOR (Homo sapiens, UniProt P42345) | binding, competition with immobilised ligand | – | 100% |
| CLK4 (Homo sapiens, UniProt Q9HAZ1) | binding, competition with immobilised ligand | – | 99% |
| Ribosomal protein S6 kinase alpha-1, N-terminal kinase domain (RPS6KA1, Homo sapiens, UniProt Q15418) | kinase binding, KINOMEscan | baseline: DMSO control | 100% |
| AKT1 (Homo sapiens, UniProt P31749) | kinase binding, KINOMEscan | baseline: DMSO control | 90% |
| GRK1 (Homo sapiens, UniProt Q15835) | binding, competition with immobilised ligand | – | 79% |
| CSNK1G2 (Homo sapiens, UniProt P78368) | binding, competition with immobilised ligand | – | 94% |

Set 4
Compound: C[C@@H]1CN(c2ccc(-c3cc(C(=O)NCCOCCOCCOCCOCCNC(=O)/C=C/c4[nH]cc(C(=O)N[C@@H](CC(N)=O)c5ccc(F)c(Cl)c5)c4-c4ccc(Cl)cc4F)ccc3F)cc2NC(=O)c2c[nH]c(=O)cc2C(F)(F)F)C[C@H](C)N1C
Observed: thermal unfolding
Method: differential scanning fluorimetry
Concentration: 5.5 µM
Direction: higher = more unfolded
DCAF1: DDB1- and CUL4-associated factor 1 (DCAF1, Homo sapiens, UniProt Q9Y4B6)
Chain of UniProt Q9Y4B6 (whole entry, looked up): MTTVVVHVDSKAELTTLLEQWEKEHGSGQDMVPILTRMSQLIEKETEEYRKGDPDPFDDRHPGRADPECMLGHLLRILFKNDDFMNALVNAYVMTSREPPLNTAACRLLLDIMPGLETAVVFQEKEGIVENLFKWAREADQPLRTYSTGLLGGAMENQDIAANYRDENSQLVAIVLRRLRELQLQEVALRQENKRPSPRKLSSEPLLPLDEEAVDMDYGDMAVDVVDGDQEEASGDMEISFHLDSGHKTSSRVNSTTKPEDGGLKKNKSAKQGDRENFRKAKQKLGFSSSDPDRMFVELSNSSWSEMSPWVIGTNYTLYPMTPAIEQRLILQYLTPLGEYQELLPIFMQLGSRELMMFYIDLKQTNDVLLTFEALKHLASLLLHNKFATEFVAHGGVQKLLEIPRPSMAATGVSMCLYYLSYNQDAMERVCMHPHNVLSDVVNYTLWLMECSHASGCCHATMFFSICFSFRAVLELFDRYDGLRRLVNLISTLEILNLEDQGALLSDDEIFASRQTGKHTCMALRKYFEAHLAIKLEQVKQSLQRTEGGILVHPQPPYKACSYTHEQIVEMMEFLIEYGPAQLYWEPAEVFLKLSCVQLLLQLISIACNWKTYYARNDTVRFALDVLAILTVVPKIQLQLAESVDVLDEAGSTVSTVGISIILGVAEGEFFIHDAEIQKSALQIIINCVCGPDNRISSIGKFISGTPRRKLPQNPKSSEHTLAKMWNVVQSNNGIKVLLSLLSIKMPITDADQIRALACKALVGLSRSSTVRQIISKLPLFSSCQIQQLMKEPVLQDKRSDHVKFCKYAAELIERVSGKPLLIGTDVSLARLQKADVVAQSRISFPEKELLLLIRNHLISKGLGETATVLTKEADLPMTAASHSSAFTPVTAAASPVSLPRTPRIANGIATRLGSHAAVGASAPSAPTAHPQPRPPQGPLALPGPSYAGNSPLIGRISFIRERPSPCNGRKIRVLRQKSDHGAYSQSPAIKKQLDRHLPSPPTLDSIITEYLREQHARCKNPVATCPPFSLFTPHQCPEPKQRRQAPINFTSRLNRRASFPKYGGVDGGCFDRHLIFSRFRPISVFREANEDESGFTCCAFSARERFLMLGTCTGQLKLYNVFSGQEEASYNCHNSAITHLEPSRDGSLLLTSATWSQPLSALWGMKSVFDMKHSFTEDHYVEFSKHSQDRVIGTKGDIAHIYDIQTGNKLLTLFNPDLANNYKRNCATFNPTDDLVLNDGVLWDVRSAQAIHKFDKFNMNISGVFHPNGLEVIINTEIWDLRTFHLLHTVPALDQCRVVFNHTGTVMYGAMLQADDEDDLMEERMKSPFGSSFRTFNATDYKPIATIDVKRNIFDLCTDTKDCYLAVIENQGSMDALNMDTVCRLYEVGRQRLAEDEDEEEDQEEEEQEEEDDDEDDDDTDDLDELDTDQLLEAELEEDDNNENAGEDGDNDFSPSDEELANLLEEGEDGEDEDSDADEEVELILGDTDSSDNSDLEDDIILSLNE
WDR5: WD repeat-containing protein 5 (WDR5, Homo sapiens, UniProt P61964)
| target | setting | SYPRO Orange fluorescence [a.u.] |
| --- | --- | --- |
| DCAF1 | 86.61 °C | 38300 |
| WDR5 | 74.21 °C | 23900 |
| DCAF1 | 65.01 °C | 58800 |
| DCAF1 | 52.2 °C | 17100 |
| WDR5 | 55.21 °C | 16800 |
| WDR5 | 54.41 °C | 16800 |
| DCAF1 | 30.2 °C | 9520 |
| DCAF1 | 74.61 °C | 50500 |
| DCAF1 | 62.61 °C | 52500 |
| DCAF1 | 50.8 °C | 15800 |
| WDR5 | 73.21 °C | 21600 |

Repeated from above (set 1):
| setting | hypocotyl length |
| --- | --- |
| 25 µg/mL, seed germination, single repetition | 1.55 cm and 1.52 cm and 1.62 cm and 1.77 cm and 1.5 cm |
| 100 µg/mL, seed germination, single repetition | 0.95 cm and 1.02 cm and 1.05 cm and 1 cm and 0.91 cm |
| 50 µg/mL, seed germination, single repetition | 1.34 cm and 1.32 cm and 1.35 cm |
